Experimental data from different studies.
Lines come from different studies, so protocols differ. Values joined by “and” are separate records of one study, mostly repeats; a detail may differ.
CDK6 with cyclin D1: Cyclin-dependent kinase 6, with cyclin D1 (CDK6, Homo sapiens, UniProt Q00534)
Chain of UniProt Q00534 (whole entry, looked up): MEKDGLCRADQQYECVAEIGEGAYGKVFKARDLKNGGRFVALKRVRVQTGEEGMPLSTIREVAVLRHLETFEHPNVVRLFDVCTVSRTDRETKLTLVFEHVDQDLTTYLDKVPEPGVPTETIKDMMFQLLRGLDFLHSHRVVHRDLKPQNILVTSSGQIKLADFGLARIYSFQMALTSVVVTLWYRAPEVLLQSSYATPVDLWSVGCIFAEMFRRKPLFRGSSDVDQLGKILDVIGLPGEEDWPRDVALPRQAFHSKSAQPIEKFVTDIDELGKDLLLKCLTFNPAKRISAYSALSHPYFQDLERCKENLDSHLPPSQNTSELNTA
CDK6 with cyclin D3: Cyclin-dependent kinase 6, with cyclin D3 (CDK6, Homo sapiens, UniProt Q00534)
CDK6: Cyclin-dependent kinase 6 (CDK6, Homo sapiens, UniProt Q00534)

| SMILES | target | test | test system | conditions | scale | measurement | value |
| --- | --- | --- | --- | --- | --- | --- | --- |
| C[C@H]1CN(C(=O)c2cn(-c3ccnc(N)n3)c3cc(C#CC4(O)CCCCC4)ccc23)CCN1 | CDK6 with cyclin D1 | enzyme activity, inhibitor |  | 1 µM |  | inhibition | 7% |
| NC(=O)[C@@H](O)C[C@H]1CCc2sc3ncnc(O[C@H]4CC[C@H](N5CCOCC5)CC4)c3c21 | CDK6 with cyclin D1 | enzyme activity, inhibitor |  | 10 µM |  | inhibition | 4% |
| COc1ccc(C(=O)/C=C/c2ccccc2-c2c[nH]c3ccc(C#N)cc23)c(O)c1 | CDK6 with cyclin D3 | enzyme activity, inhibitor |  | 20 µM |  | inhibition | 2% |
| CS(=O)(=O)Nc1cccc(-c2csc3cnc(Nc4ccc(N5CCN(CCCCCOc6cccc7c6C(=O)N(C6CCC(=O)NC6=O)C7=O)CC5)cc4)nc23)c1 (stereo not shown) | CDK6 | target engagement in cells | MOLT-4 | 1 µM |  | inhibition | > 90% |
| Nc1ncc(-c2cc(-c3cnn(CC(F)(F)F)c3)ncc2F)nc1C(=O)NC1CNCC(F)C1 (stereo not shown) | CDK6 with cyclin D1 | enzyme activity |  | 1 µM | baseline: DMSO control | remaining activity | 110% |
| CCn1cc(C(=O)O)c(=O)c2c(N)c(F)c(NC3CCCCC3)cc21 | CDK6 with cyclin D3 | kinase activity |  | 0.1 µM, with: ATP at Km |  | inhibition | -2% |
| CN1CC[C@@H](COc2cnc(C#N)cc2-c2ccn3nc(NC(=O)C4CC4)cc3c2)C1 | CDK6 with cyclin D3 | enzyme activity, inhibitor |  | 1 µM |  | inhibition | 8% |
| Cc1cccc(O[C@H]2CCC[C@@H](C(C)CNCc3ccncc3)C2)c1 (relative stereo) | CDK6 with cyclin D3 | enzyme activity, inhibitor |  | 10 µM |  | inhibition | 5% |
| O=c1c(-c2ccc(Cl)c(CN3CCOCC3)c2)coc2cc(O)ccc12 | CDK6 with cyclin D3 | enzyme activity, inhibitor |  | 1 µM |  | remaining activity | 100% |
| NC(=O)C[C@H]1CCc2sc3ncnc(O[C@H]4CC[C@H](N5CCOCC5)CC4)c3c21 | CDK6 with cyclin D3 | enzyme activity, inhibitor |  | 10 µM |  | inhibition | 6% |
| Cc1cc(C)nc(Nc2ccc([C@@H]3CCCN(C(=O)/C=C/c4c(C)nn(C)c4C)C3)nc2)n1 | CDK6 | enzyme activity, inhibitor, ADP detection |  | 1 µM |  | activity vs control | 18% |
| CN1C[C@@H](c2c[nH]c3cc(Br)ccc23)NC[C@@H]1c1c[nH]c2cc(Br)ccc12 | CDK6 with cyclin D1 | enzyme activity, inhibitor |  | 10 µM |  | remaining activity | 98% |
| COCC12C(=O)NC3C4(C(OC)CC1O)C1CC5(O)C(OC)C(O)C(OC(C)=O)(C1C5OC(=O)c1ccccc1)C3(O)C(OC)C24 (stereo not shown) | CDK6 with cyclin D1 | kinase activity, inhibitor, ProQinase kinase profiling |  | 25 µM | baseline: control | remaining activity | 102% and 90% |
| Cc1cc(C)nc(Nc2ccc([C@@H]3CCCN(C(=O)/C=C/c4csc(C)n4)C3)nc2)n1 | CDK6 | enzyme activity, inhibitor, ADP detection |  | 1 µM |  | activity vs control | 23% |
| O=C(Cc1ccc(OCc2ccccc2)cc1)NC1(C(=O)O)CCN(C(=O)c2ccc(-c3cccc(Cl)c3)cc2)CC1 | CDK6 with cyclin D3 | enzyme activity, inhibitor |  | 10 µM |  | activity vs control | 116% |
| C=CC(=O)Nc1cccc(-c2cnc3[nH]cc(C(=O)NC(C)(C)C)c3n2)c1 | CDK6 with cyclin D3 | enzyme activity, inhibitor |  | 0.1 µM |  | inhibition | 14% |
